Measured values collected from several papers.
Each line is one published result; not all experiments were run side by side.

SMILES | assay | test system | conditions | endpoint | value
Cc1cc(-c2nnc(N)nc2-c2ccc(F)cc2)cc(Cl)n1 | refers to: Myositis | IO-naive mCRPC patients, male | oral, dose not given, treatment-related, all grades | patients with immune-mediated AE | 0%
CNC(=O)c1ccc(-c2cnc3ncc(Cc4ccc5ncccc5c4)n3n2)cc1F | refers to: Constipation, all grades | gastric cancer patients | oral, 600 mg twice daily, expansion cohort, any causality | patients with adverse event | 33%
COc1cc(Nc2ncc3c(n2)-c2ccc(Cl)cc2C(c2c(F)cccc2OC)=NC3)ccc1C(=O)O | – | cancer patients | oral, dose not given, grade 3 any attribution, together with: pembrolizumab | patients with febrile neutropenia | 8%
Cc1cc(NC2CCN(C(=O)OC3CCN(C(=O)/C=C/CN(C)C)C3)CC2)n2ncc(C(C)C)c2n1 (centres unmarked) | Phase I dose escalation CTCAE v4.0, refers to: Nausea | patients with advanced solid tumours | dose not given, all dose schedules any grade | patients with adverse event | 30%
CC(C)C[C@H](NC(=O)[C@@H](Cc1c[nH]c2ccccc12)NC(=O)[C@H](Cc1ccc(O)cc1)NC(=O)[C@H](CO)NC(=O)[C@H](Cc1c[nH]c2ccccc12)NC(=O)[C@H](Cc1c[nH]cn1)NC(=O)[C@@H]1CCC(=O)N1)C(=O)N[C@@H](CCCNC(=N)N)C(=O)N1CCC[C@H]1C(=O)NCC(N)=O | – | Chinese CPP children, girls | intramuscular, 22.5 mg, 12 months, day 1, month 6 | patients with adverse events | 88.7%
O=C(Nc1nc2cccc(-c3ccc(CN4CCS(=O)(=O)CC4)cc3)n2n1)C1CC1 | – | rheumatoid arthritis patients | oral, 100 mg twice daily, 4 weeks, TEAE regardless of relatedness | patients with Dysgeusia | 8.3%
C=CCN1CC(=O)N2[C@@H](Cc3ccc(O)cc3F)C(=O)N(Cc3cccc(N4CC(N5CCN(CC)CC5)C4)n3)C[C@@H]2N1C(=O)NCc1ccccc1 | – | advanced solid tumour patients | 160 mg twice daily, treatment-related, any grade | patients with ALT increased | 50%
C=CC[C@@H]1/C=C(\C)C[C@H](C)C[C@H](OC)[C@H]2O[C@@](O)(C(=O)C(=O)N3CCCC[C@H]3C(=O)O[C@H](/C(C)=C/[C@@H]3CC[C@@H](O)[C@H](OC)C3)[C@H](C)[C@@H](O)CC1=O)[C@H](C)C[C@@H]2OC | – | kidney transplant recipients, whole blood | oral, dose not given, early post-transplant phase | patients with subtherapeutic C0 | 65%
